Measurements from different studies.
Each line is one published result; not all experiments were run side by side.
Partner: itself
B1: IL2 mature Y45A (Bos taurus, UniProt P05016); sequence looked up; chain APTSSSTGNTMKEVKSLLLDLQLLLEKVKNPENLKLSRMHTFDFAVPKVNATELKHLKCLLEELKLLEEVLNLAPSKNLNPREIKDSMDNIKRIVLELQGSETRFTCEYDDATVNAVEFLNKWITFCQSIYSTMT
B2: Ph-p 1397-1577 (Drosophila melanogaster, UniProt P39769); chain GVGSGETNGLGTGGIVGVDAMALVDRLDEAMAEEKMQTEATPKLSESFPILGASTEVPPMSLPVQAAISAPSPLAMPLGSPLSVALPTLAPLSVVTSGAAPKSSEVNGTDRPPISSWSVDDVSNFIRELPGCQDYVDDFIQQEIDGQALLLLKEKHLVNAMGMKLGPALKIVAKVESIKEV
B3: TARDBP LC domain 262-414; chain PKHNSNRQLERSGRFGGNPGGFGNQGGFGNSRGGGAGLGNNQGSNMGGGMNFGAFSINPAMMAAAQAALQSSWGMMGMLASQQNQSGPSGNNQNQGNMQREPNQAFGSGNNSYSGSNSGAAIGWGSASNAGSGSGFNGGFGSSMDSKSSGWGM
B4: dszC H391A (Rhodococcus erythropolis, UniProt P54998); sequence looked up; chain MTLSPEKQHVRPRDAADNDPVAVARGLAEKWRATAVERDRAGGSATAEREDLRASGLLSLLVPREYGGWGADWPTAIEVVREIAAADGSLGHLFGYHLTNAPMIELIGSQEQEEHLYTQIAQNNWWTGNASSENNSHVLDWKVSATPTEDGGYVLNGTKHFCSGAKGSDLLFVFGVVQDDSPQQGAIIAAAIPTSRAGVTPNDDWAAIGMRQTDSGSTDFHNVKVEPDEVLGAPNAFVLAFIQSERGSLFAPIAQLIFANVYLGIAHGALDAAREYTRTQARPWTPAGIQQATEDPYTIRSYGEFTIALQGADAAAREAAHLLQTVWDKGDALTPEDRGELMVKVSGVKALATNAALNISSGVFEVIGARGTHPRYGFDRFWRNVRTHSLADPVSYKIADVGKHTLNGQYPIPGFTS
B5: CRYAA G98R (Homo sapiens, UniProt P02489); sequence looked up; chain MDVTIQHPWFKRTLGPFYPSRLFDQFFGEGLFEYDLLPFLSSTISPYYRQSLFRTVLDSGISEVRSDRDKFVIFLDVKHFSPEDLTVKVQDDFVEIHRKHNERQDDHGYISREFHRRYRLPSNVDQSALSCSLSADGMLTFCGPKIQTGLDATHAERAIPVSREEKPTSAPSS
B6: dlg1 1-97 R39A (Drosophila melanogaster, UniProt P31007); sequence looked up; chain MPVKKQEAHRALELLEDYHARLSEPQDRALRIAIERVIAIFKSRLFQALLDIQEFYELTLLDDSKSIQQKTAETLQIATKWEKDGQAVKIADFIKSS
B7: TOP2 C180A/C731A/E155C (Saccharomyces cerevisiae, UniProt P06786); AlexaFluor 488/546 labels; sequence looked up; chain MSTEPVSASDKYQKISQLEHILKRPDTYIGSVETQEQLQWIYDEETDCMIEKNVTIVPGLFKIFDEILVNAADNKVRDPSMKRIDVNIHAEEHTIEVKNDGKGIPIEIHNKENIYIPEMIFGHLLTSSNYDDDEKKVTGGRNGYGAKLCNIFSTCFILETADLNVGQKYVQKWENNMSIAHPPKITSYKKGPSYTKVTFKPDLTRFGMKELDNDILGVMRRRVYDINGSVRDINVYLNGKSLKIRNFKNYVELYLKSLEKKRQLDNGEDGAAKSDIPTILYERINNRWEVAFAVSDISFQQISFVNSIATTMGGTHVNYITDQIVKKISEILKKKKKKSVKSFQIKNNMFIFINCLIENPAFTSQTKEQLTTRVKDFGSRCEIPLEYINKIMKTDLATRMFEIADANEENALKKSDGTRKSRITNYPKLEDANKAGTKEGYKCTLVLTEGDSALSLAVAGLAVVGRDYYGCYPLRGKMLNVREASADQILKNAEIQAIKKIMGLQHRKKYEDTKSLRYGHLMIMTDQDHDGSHIKGLIINFLESSFPGLLDIQGFLLEFITPIIKVSITKPTKNTIAFYNMPDYEKWREEESHKFTWKQKYYKGLGTSLAQEVREYFSNLDRHLKIFHSLQGNDKDYIDLAFSKKKADDRKEWLRQYEPGTVLDPTLKEIPISDFINKELILFSLADNIRSIPNVLDGFKPGQRKVLYGCFKKNLKSELKVAQLAPYVSEATAYHHGEQSLAQTIIGLAQNFVGSNNIYLLLPNGAFGTRATGGKDAAAARYIYTELNKLTRKIFHPADDPLYKYIQEDEKTVEPEWYLPILPMILVNGAEGIGTGWSTYIPPFNPLEIIKNIRHLMNDEELEQMHPWFRGWTGTIEEIEPLRYRMYGRIEQIGDNVLEITELPARTWTSTIKEYLLLGLSGNDKIKPWIKDMEEQHDDNIKFIITLSPEEMAKTRKIGFYERFKLISPISLMNMVAFDPHGKIKKYNSVNEILSEFYYVRLEYYQKRKDHMSERLQWEVEKYSFQVKFIKMIIEKELTVTNKPRNAIIQELENLGFPRFNKEGKPYYGSPNDEIAEQINDVKGATSDEEDEESSHEDTENVINGPEELYGTYEYLLGMRIWSLTKERYQKLLKQKQEKETELENLLKLSAKDIWNTDLKAFEVGYQEFLQRDAEARGGNVPNKGSKTKGKGKRKLVDDEDYDPSKKNKKSTARKGKKIKLEDKNFERILLEQKLVTKSKAPTKIKKEKTPSVSETKTEEEENAPSSTSSSSIFDIKKEDKDEGELSKISNKFKKISTIFDKMGSTSATSKENTPEQDDVATKKNQTTAKKTAVKPKLAKKPVRKQQKVVELSGESDLEILDSYTDREDSNKDEDDAIPQRSRRQRSSRAASVPKKSYVETLELSDDSFIEDDEEENQGSDVSFNEED
B8: SPOP R70L (Homo sapiens, UniProt O43791); sequence looked up; chain MSRVPSPPPPAEMSSGPVAESWCYTQIKVVKFSYMWTINNFSFCREEMGEVIKSSTFSSGANDKLKWCLLVNPKGLDEESKDYLSLYLLLVSCPKSEVRAKFKFSILNAKGEETKAMESQRAYRFVQGKDWGFKKFIRRDFLLDEANGLLPDDKLTLFCEVSVVQDSVNISGQNTMNMVKVPECRLADELGGLWENSRFTDCCLCVAGQEFQAHKAILAARSPVFSAMFEHEMEESKKNRVEINDVEPEVFKEMMCFIYTGKAPNLDKMADDLLAAADKYALERLKVMCEDALCSNLSVENAAEILILADLHSADQLKTQAVDFINYHASDVLETSGWKSMVVSHPHLVAEAYRSLASAQCPFLGPPRKRLKQS
B9: AP3D1 1-617 (Homo sapiens, UniProt O14617); sequence looked up; chain MALKMVKGSIDRMFDKNLQDLVRGIRNHKEDEAKYISQCIDEIKQELKQDNIAVKANAVCKLTYLQMLGYDISWAAFNIIEVMSASKFTFKRIGYLAASQSFHEGTDVIMLTTNQIRKDLSSPSQYDTGVALTGLSCFVTPDLARDLANDIMTLMSHTKPYIRKKAVLIMYKVFLKYPESLRPAFPRLKEKLEDPDPGVQSAAVNVICELARRNPKNYLSLAPLFFKLMTSSTNNWVLIKIIKLFGALTPLEPRLGKKLIEPLTNLIHSTSAMSLLYECVNTVIAVLISLSSGMPNHSASIQLCVQKLRILIEDSDQNLKYLGLLAMSKILKTHPKSVQSHKDLILQCLDDKDESIRLRALDLLYGMVSKKNLMEIVKKLMTHVDKAEGTTYRDELLTKIIDICSQSNYQYITNFEWYISILVELTRLEGTRHGHLIAAQMLDVAIRVKAIRKFAVSQMSALLDSAHLLASSTQRNGICEVLYAAAWICGEFSEHLQEPHHTLEAMLRPRVTTLPGHIQAVYVQNVVKLYASILQQKEQAGEAEGAQAVTQLMVDRLPQFVQSADLEVQERASCILQLVKHIQKLQAKDVPVAEEVSALFAGELNPVAPKAQKKVPV
B10: SCNN1G 1-649 (Homo sapiens, UniProt P51170); chain MAPGEKIKAKIKKNLPVTGPQAPTIKELMRWYCLNTNTHGCRRIVVSRGRLRRLLWIGFTLTAVALILWQCALLVFSFYTVSVSIKVHFRKLDFPAVTICNINPYKYSTVRHLLADLEQETREALKSLYGFPESRKRREAESWNSVSEGKQPRFSHRIPLLIFDQDEKGKARDFFTGRKRKVGGSIIHKASNVMHIESKQVVGFQLCSNDTSDCATYTFSSGINAIQEWYKLHYMNIMAQVPLEKKINMSYSAEELLVTCFFDGVSCDARNFTLFHHPMHGNCYTFNNRENETILSTSMGGSEYGLQVILYINEEEYNPFLVSSTGAKVIIHRQDEYPFVEDVGTEIETAMVTSIGMHLTESFKLSEPYSQCTEDGSDVPIRNIYNAAYSLQICLHSCFQTKMVEKCGCAQYSQPLPPAANYCNYQQHPNWMYCYYQLHRAFVQEELGCQSVCKEACSFKEWTLTTSLAQWPSVVSEKWLLPVLTWDQGRQVNKKLNKTDLAKLLIFYKDLNQRSIMESPANSIEMLLSNFGGQLGLWMSCSVVCVIEIIEVFFIDFFSIIARRQWQKAKEWWAWKQAPPCPEAPRSPQGQDNPALDIDDDLPTFNSALHLPPALGTQVPGTPPPKYNTLRLERAFSNQLTDTQMLDEL
B11: C1S 16-292 (Homo sapiens, UniProt P09871); chain EPTMYGEILSPNYPQAYPSEVEKSWDIEVPEGYGIHLYFTHLDIELSENCAYDSVQIISGDTEEGRLCGQRSSNNPHSPIVEEFQVPYNKLQVIFKSDFSNEERFTGFAAYYVATDINECTDFVDVPCSHFCNNFIGGYFCSCPPEYFLHDDMKNCGVNCSGDVFTALIGEIASPNYPKPYPENSRCEYQIRLEKGFQVVVTLRREDFDVEAADSAGNCLDSLVFVAGDRQFGPYCGHGFPGPLNIETKSNALDIIFQTDLTGQKKGWKLRYHGDPM
B12: parM (Escherichia coli, UniProt P11904); sequence looked up; chain MLVFIDDGSTNIKLQWQESDGTIKQHISPNSFKREWAVSFGDKKVFNYTLNGEQYSFDPISPDAVVTTNIAWQYSDVNVVAVHHALLTSGLPVSEVDIVCTLPLTEYYDRNNQPNTENIERKKANFRKKITLNGGDTFTIKDVKVMPESIPAGYEVLQELDELDSLLIIDLGGTTLDISQVMGKLSGISKIYGDSSLGVSLVTSAVKDALSLARTKGSSYLADDIIIHRKDNNYLKQRINDENKISIVTEAMNEALRKLEQRVLNTLNEFSGYTHVMVIGGGAELICDAVKKHTQIRDERFFKTNNSQYDLVNGMYLIGN
B13: TAF15 7-99 del58-72 (Homo sapiens, UniProt Q92804); sequence looked up; chain YGQSGGEQQSYSTYGNPGSQGYGQASQSYSGYGQTTDSSYGQNYSGYSSYGQKQSSYSQQPYNNQGQQQNMESSGSQG
B14: APPBP2 1-584 (Homo sapiens, UniProt Q92624); chain MAAVELEWIPETLYNTAISAVVDNYIRSRRDIRSLPENIQFDVYYKLYQQGRLCQLGSEFCELEVFAKVLRALDKRHLLHHCFQALMDHGVKVASVLAYSFSRRCSYIAESDAAVKEKAIQVGFVLGGFLSDAGWYSDAEKVFLSCLQLCTLHDEMLHWFRAVECCVRLLHVRNGNCKYHLGEETFKLAQTYMDKLSKHGQQANKAALYGELCALLFAKSHYDEAYKWCIEAMKEITAGLPVKVVVDVLRQASKACVVKREFKKAEQLIKHAVYLARDHFGSKHPKYSDTLLDYGFYLLNVDNICQSVAIYQAALDIRQSVFGGKNIHVATAHEDLAYSSYVHQYSSGKFDNALFHAERAIGIITHILPEDHLLLASSKRVKALILEEIAIDCHNKETEQRLLQEAHDLHLSSLQLAKKAFGEFNVQTAKHYGNLGRLYQSMRKFKEAEEMHIKAIQIKEQLLGQEDYEVALSVGHLASLYNYDMNQYENAEKLYLRSIAIGKKLFGEGYSGLEYDYRGLIKLYNSIGNYEKVFEYHNVLSNWNRLRDRQYSVTDALEDVSTSPQSTEEVVQSFLISQNVEGPS
Chain of UniProt D3KZG3 (whole entry, looked up): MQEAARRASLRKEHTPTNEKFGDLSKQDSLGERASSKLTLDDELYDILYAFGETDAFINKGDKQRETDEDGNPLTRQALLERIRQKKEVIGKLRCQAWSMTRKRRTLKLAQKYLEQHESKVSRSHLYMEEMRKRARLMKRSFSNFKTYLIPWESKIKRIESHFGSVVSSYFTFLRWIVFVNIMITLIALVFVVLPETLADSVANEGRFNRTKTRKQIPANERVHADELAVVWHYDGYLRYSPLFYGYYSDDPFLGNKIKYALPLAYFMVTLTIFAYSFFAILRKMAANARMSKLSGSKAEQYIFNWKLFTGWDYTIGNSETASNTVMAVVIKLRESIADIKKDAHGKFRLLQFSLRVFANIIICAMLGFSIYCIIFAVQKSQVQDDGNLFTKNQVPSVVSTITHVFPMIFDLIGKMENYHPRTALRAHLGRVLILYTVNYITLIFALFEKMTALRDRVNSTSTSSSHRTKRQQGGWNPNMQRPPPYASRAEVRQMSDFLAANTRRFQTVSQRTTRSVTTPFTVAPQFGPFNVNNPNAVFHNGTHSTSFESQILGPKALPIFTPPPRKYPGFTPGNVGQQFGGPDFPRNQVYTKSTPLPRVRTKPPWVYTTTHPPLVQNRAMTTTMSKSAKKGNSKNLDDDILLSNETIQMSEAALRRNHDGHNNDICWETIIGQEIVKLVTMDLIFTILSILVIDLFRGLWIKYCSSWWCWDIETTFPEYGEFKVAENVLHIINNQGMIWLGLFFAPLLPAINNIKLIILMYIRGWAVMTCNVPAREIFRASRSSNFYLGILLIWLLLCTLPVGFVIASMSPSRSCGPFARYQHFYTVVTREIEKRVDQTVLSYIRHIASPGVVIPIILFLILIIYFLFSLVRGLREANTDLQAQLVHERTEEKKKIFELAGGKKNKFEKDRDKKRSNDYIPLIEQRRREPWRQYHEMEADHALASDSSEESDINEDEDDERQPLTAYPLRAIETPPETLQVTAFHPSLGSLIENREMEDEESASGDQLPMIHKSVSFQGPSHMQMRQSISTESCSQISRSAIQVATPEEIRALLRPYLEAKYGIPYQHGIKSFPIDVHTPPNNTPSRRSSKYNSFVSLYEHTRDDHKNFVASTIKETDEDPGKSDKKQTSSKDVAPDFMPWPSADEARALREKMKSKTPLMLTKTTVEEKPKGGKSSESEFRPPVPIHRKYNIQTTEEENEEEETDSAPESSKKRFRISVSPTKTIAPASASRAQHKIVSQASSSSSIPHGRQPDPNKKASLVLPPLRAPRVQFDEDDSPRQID

Molecule | assay | setting | binding
B1 (IL2 mature Y45A) | SDS-PAGE |  | binds
B2 (Ph-p 1397-1577) | AUC | sedimentation velocity, self-association | binds
B3 (TARDBP LC domain 262-414) | phase separation, light microscopy |  | binds
B4 (dszC H391A) | SEC |  | binds
B5 (CRYAA G98R) | SEC-MALS | 1 hour h, pH 7.4, 37 °C | binds
B6 (dlg1 1-97 R39A) | SEC |  | binds
B7 (TOP2 C180A/C731A/E155C) | FRET or BRET | with: ADP, ATP, ADPNP | binds
B8 (SPOP R70L) | negative-stain TEM |  | binds
B9 (AP3D1 1-617) | cryo-EM |  | binds
B10 (SCNN1G 1-649) | cryo-EM |  | binds
B11 (C1S 16-292) | cryo-EM |  | binds
tmc-1 (Caenorhabditis elegans, UniProt D3KZG3) | SEC |  | binds
B12 (parM) | negative stain electron microscopy |  | binds
B13 (TAF15 7-99 del58-72) | ThT fluorescence, negative-stain TEM | peptide | binds
B14 (APPBP2 1-584) | cryo-EM |  | binds

Some of these lines once more:
Molecule | assay | setting | binding
B8 (SPOP R70L) | negative-stain TEM |  | binds
B13 (TAF15 7-99 del58-72) | ThT fluorescence, negative-stain TEM | peptide | binds
